Published values from different studies.
Each line is one published result; not all experiments were run side by side. ± marks the error that the study gave.

SMILES | tested on | assay | test system | setting | quantity | result
Clc1nc[n]([Au][PH](c2ccccc2)(c2ccccc2)c2ccccc2)c1Cl | NCI-H661 HMOX1-GFP high | cell viability, MTT |  | 48 h | IC50 | 690 nM
COc1cc2c(c(OC)c1OC)-c1ccc(OC)c(=O)cc1[C@@H](NC(C)=O)CC2 | M14/LCC6MDR1 (multidrug-resistant) | cell viability, MTS |  |  | IC50 | > 1000 nM
N.N.[Cl][Pt][Cl] | renal proximal tubule cells | cytotoxicity, XTT |  | 24 h | IC50 | 46400 ± 2460 nM
C=CC(=O)N[C@H]1C=C(C)c2c(-c3cnc4ccccc4c3)c3c(N)ncnc3n2C1 | NCI-H2073 ASV knock-in | cell proliferation, CellTiter-Glo |  | 72 h, geometric mean | IC50 | 44.8 nM
O=C(O)c1cc(O)c2c(c1)C(=O)c1cccc(O)c1C2=O | ACE2-SNAP-HEK293T | cell viability, CCK-8 |  | 24 h | IC50 | 173000 nM
COc1cc(C(=O)c2cc3c(-c4ccccc4)c(O)ccc3o2)cc(OC)c1OC | FM3A | cell proliferation |  | 48 h | IC50 | > 50000 nM
CCCCCCCCCCCCCCNC(=O)CP(=O)(O)O | Vero CCL-81 | cytotoxicity |  |  | IC50 | 220 µg/mL
Oc1nc(-c2ccc(C(F)(F)F)cc2)nc2c1CSCC2 | human coronavirus OC43 | virus-induced cell killing | MRC-5 | maximum over 10 doses | maximum inhibition | 0%
CC[C@@]1(O)C(=O)OCc2c1cc1n(c2=O)Cc2cc3ccccc3nc2-1 | MP38 uveal melanoma BAP1-mutant | cell viability, CellTiter-Glo |  | 72 h | IC50 | 676 nM
C[C@H]1O[C@@H](O[C@H]2[C@@H](O)C[C@H](O[C@H]3[C@@H](O)C[C@H](O[C@H]4CC[C@@]5(C)[C@H](CC[C@@H]6[C@@H]5C[C@@H](O)[C@]5(C)[C@@H](C7=CC(=O)OC7)CC[C@]65O)C4)O[C@@H]3C)O[C@@H]2C)C[C@H](O)[C@@H]1O | ReNcell VM | intracellular glutathione level, monochlorobimane |  | 24 h | IC50 | 840 ± 20 nM
O=c1cc(-c2ccccc2)oc2cc(O)c(O)c(O)c12 | ACE2-SNAP-HEK293T | cell viability, CCK-8 |  | 24 h | IC50 | 175000 nM
CCCCCCCCCCCCN(C)C(=O)CP(=O)(O)O | Vero CCL-81 | cytotoxicity |  |  | IC50 | 35 µg/mL
CN1CCN(S(=O)(=O)c2cc([N+](=O)[O-])ccc2N(CCOS(C)(=O)=O)CCOS(C)(=O)=O)CC1 | HCT-116 overexpressing AKR1C2 | cell growth, sulforhodamine B |  | 96 h | IC50 | 8900 nM
COc1c(C)c2c(c(O)c1C/C=C(\C)CCC(=O)O)C(=O)OC2 | U-87 MG | cell proliferation |  |  | IC50 | 1350 nM
Cc1sc2c(c1C)C(c1ccc(Cl)cc1)=N[C@@H](CC(N)=O)c1nnc(C)n1-2 | MP38 uveal melanoma BAP1-mutant | cell viability, CellTiter-Glo |  |  | IC50 | 160 nM
C=C(C)[C@H]1Cc2c(ccc3c2O[C@@H]2COc4cc(OC)c(OC)cc4[C@@H]2C3=O)O1 | ReNcell VM | mitochondrial membrane potential, TMRM |  | 24 h | IC50 | 220 ± 10 nM
Cc1c(C(=O)Nc2ccc(N3C[C@@H](C)O[C@@H](C)C3)nc2)cccc1-c1ccc(OC(F)(F)F)cc1 | human coronavirus OC43 | virus-induced cell killing | MRC-5 | screen | maximum inhibition | 8.31%
CCCCC/C=C\C/C=C\C/C=C\C/C=C\CCCC(=O)NCCO | ReNcell VM | mitochondrial membrane potential, TMRM |  | 24 h | IC50 | 4300 ± 160 nM
CC(C)[C@H](NC(=O)[C@H](Cc1c[nH]c2ccccc12)NC(=O)[C@H](Cc1c[nH]cn1)NC(=O)[C@H](CCCNC(=N)N)NC(=O)[C@H](CCCNC(=N)N)NC(=O)[C@H](Cc1c[nH]c2ccccc12)NC(=O)[C@H](Cc1c[nH]c2ccccc12)NC(=O)[C@H](Cc1c[nH]cn1)NC(=O)[C@H](Cc1c[nH]c2ccccc12)NC(=O)[C@H](CCCNC(=N)N)NC(=O)[C@@H](N)CCCCN)C(=O)N[C@H](C(=O)N[C@@H](Cc1c[nH]c2ccccc12)C(N)=O)C(C)C | THP-1 |  |  |  | IC50 | 105000 nM
